Measured values of several laboratories.
Protocols differ between the studies behind these lines. Several values in a cell are separate wells, animals, samples, runs or records. ± marks the error that the study gave.

SMILES | assay | test system | setting | how to read | measurement | result
CC[C@H](C)[C@@H]1NC(=O)[C@H](Cc2ccc(O)cc2)NC(=O)CCCSC[C@@H](C(=O)N(CC(=O)N[C@@H](CC(C)C)C(=O)NCC(N)=O)Cc2ccc(F)cc2)NC(=O)[C@H](CC(N)=O)NC(=O)[C@H](CCC(N)=O)NC1=O | – | human | intranasal, 200 µg repeated doses | – | adverse drug reactions | 67%
CCCCN1C(=O)c2cccc3c(NCCCCCCCCN4CCOCC4)ccc(c23)C1=O | – | acetonitrile | – | – | emission maximum | 526 nm
[123I]c1ccc2nc(-c3ccc(-n4ccnn4)nc3)cn2c1 | – | male Wistar rat, kidney | intravenous, 4 MBq, 14 h | – | tracer uptake | 0.02 %ID/g
Cc1cnc2nc1Nc1cccc(c1)COC/C=C/COCc1cc(ccc1OCCN1CCOCC1)N2 | – | BALB/c mice, rhEPO-induced polycythemia | 100 mg/kg, day 4 | – | body weight | 19.3 g and 19.4 g and 18.9 g and 17.4 g and 18.1 g and 19.1 g
C=C[C@]1(C)C[C@@H](OC(=O)CSc2ccc(NC(=O)c3ccco3)cc2)[C@]2(C)[C@H](C)CC[C@]3(CCC(=O)[C@H]32)[C@@H](C)[C@@H]1O | – | Mycoplasma gallisepticum-infected chickens, plasma | intramuscular, 5 mg/kg, 1 h | – | plasma concentration | 309 ng/mL and 344 ng/mL and 256 ng/mL and 378 ng/mL and 328 ng/mL and 338 ng/mL and 374 ng/mL and 382 ng/mL
O=C(CCc1cn([C@@H]2O[C@H](C[18F])[C@@H](O)[C@H](O)[C@H]2O)nn1)Nc1ccc(-c2nnc(-c3ccccn3)nn2)nc1 | – | LS174T xenograft, BALB/c nude mouse, muscle | intravenous, 1 h, together with: saline instead of CC49-TCO | – | muscle uptake | 0.001 ± 0.0002 %ID/g
C=CC(=O)Nc1cc(Nc2nccc(-c3cn(C)c4ccccc34)n2)c(OC)cc1N(C)CCNC | – | human, plasma | 72 h, on ice, high QC level | – | remaining compound | 76.6%
O=C(NS(=O)(=O)c1cccs1)c1cc2ccccc2n1Cc1ccc(Br)c2ccccc12 | – | mouse, plasma | oral, 2 mg/kg | – | AUC(0-last) | 348 ng·h/mL
CC(C)[C@H](NC(=O)[C@H](Cc1c[nH]c2ccccc12)NC(=O)[C@H](CCCNC(=N)N)NC(=O)[C@H](CCCNC(=N)N)NC(=O)[C@@H](NC(=O)[C@@H](NC(=O)[C@H](CCCNC(=N)N)NC(=O)[C@@H](NC(=O)[C@@H](NC(=O)[C@H](CCCNC(=N)N)NC(=O)[C@H](CCCNC(=N)N)NC(=O)[C@@H](NC(=O)[C@H](Cc1c[nH]c2ccccc12)NC(=O)[C@H](CCCNC(=N)N)NC(=O)[C@H](CCCNC(=N)N)NC(=O)[C@@H](NC(=O)[C@H](CCCNC(=N)N)NC(=O)[C@H](CCCNC(=N)N)NC(=O)[C@@H](NC(=O)[C@H](Cc1c[nH]c2ccccc12)NC(=O)[C@H](CCCNC(=N)N)NC(=O)[C@@H](N)CCCNC(=N)N)C(C)C)C(C)C)C(C)C)C(C)C)C(C)C)C(C)C)C(C)C)C(=O)N[C@@H](CCCNC(=N)N)C(=O)N[C@@H](CCCNC(=N)N)C(=O)O | dipstick | CD1 mouse, urine | intravenous, 15 mg/kg, 6 h, [14C]-labelled compound | – | specific gravity | 1.01 g/mL
COC(=O)C(C)n1nc(Cn2cc3cc(OCC[18F])c(Cl)cc3n2)c2ccccc2c1=O (racemic) | – | rat, plasma | 60 min | – | parent compound | 20%
CCCCN1C(=O)c2cccc3c(NCCCCCN4CCOCC4)ccc(c23)C1=O | – | DMF | – | – | emission maximum | 526 nm
CC(C)=CCC1=C([O-])C(=O)c2ccccc2C1=O.CC(C)=CCC1=C([O-])C(=O)c2ccccc2C1=O.[Zn+2].c1ccc(-c2ccnc3c2ccc2c(-c4ccccc4)ccnc23)cc1 | cyclic voltammetry | CH2Cl2, Bu4NPF6 | 0.1 mM | relative to: Ag/AgCl sat. KOH | Epc1 cathodic peak potential | 0.63 V
CCCCN1C(=O)c2cccc3c(NCCCN4CCOCC4)ccc(c23)C1=O | – | DMSO | – | – | emission maximum | 535 nm
COc1cccc(OC)c1-c1cc(C(=O)NC2(C(=O)O)C3CC4CC(C3)CC2C4)nn1-c1ccc(C(=O)NCCNC(=O)[C@H](CCCCNC(=O)[C@H](CC(C)C)NC(=O)C2OC2C(=O)O)NC(=O)CN2CCN(CC(=O)[O-])CCN(CC(=O)[O-])CCN(CC(=O)[O-])CC2)cc1C(C)C.[177Lu+3] (mixture of isomers) | – | mouse HT-29 xenograft | 4 h, biodistribution | relative to: tumour over spleen | tumour-to-spleen ratio | 9.82
CC(=O)N([O-])CCCCCNC(=O)CCC(=O)N([O-])CCCCCNC(=O)CCC(=O)N([O-])CCCCCN.[89Zr+4] | – | mouse, brain | 4 h | – | tracer uptake | 0.01 %ID/g
Cc1cc(-c2ccc(C(=O)[C@@H]3CCCC[C@H]3C(=O)Nc3cnn4c3C(=O)NCC4)cc2)[nH]n1 | – | human, urine | oral, 200 mg, 0-72 h | relative to: dose | cumulative recovery of radioactivity | 5.8%
CCCCN1C(=O)c2cccc3c(NCCCCN4CCOCC4)ccc(c23)C1=O | – | dichloromethane | – | – | emission maximum | 509 nm
COc1ccnc(C(=O)N[C@H]2COC(=O)[C@H](Cc3ccccc3)[C@@H](OC(=O)C(C)C)[C@H](C)OC2=O)c1O | soil adsorption | soil | pH 5.9, organic carbon 0.9 % | – | Freundlich coefficient KF | 303 mL/g
CCCCN1C(=O)c2cccc3c(NCCCCCCN4CCOCC4)ccc(c23)C1=O | – | dioxane | – | – | emission maximum | 513 nm
NCCCC[C@H](NC(=O)[C@H](Cc1c[nH]c2ccccc12)NC(=O)[C@H](CCCCN)NC(=O)[C@@H](N)Cc1c[nH]c2ccccc12)C(=O)N[C@@H](Cc1c[nH]c2ccccc12)C(=O)O | – | MOLM-13 cell medium | 10% serum | – | time to complete degradation | ≤ 1 h
CN[C@H]1CC[C@H]([C@@]2(C)Oc3c(Cl)cc(C(=O)NCc4c(C)cc(C)[nH]c4=O)c(C)c3O2)CC1 | radiochromatography | human, feces | oral, 200 mg | relative to: dose | fecal excretion | 3.2% and 2.3% and 1.5%

SMILES | assay | test system | setting | how to read | measurement | result
Cc1[nH]nc2c1N=C(c1ccccc1Cl)c1cnc(N3CCOCC3)cc1N2 | – | nude mouse, HCC1806 xenograft, plasma | oral, 15 mg/kg once daily | – | AUC(0-last) | 2900 ng·h/mL
CN(C)C(=O)c1cncc(N2Cc3cn(Cc4ccc(F)cc4)nc3C2)n1 | – | MDCK-MDR1 | – | – | Papp A→B | 18.9 ×10⁻⁶ cm/s
COc1cccc(OC)c1-c1cc(C(=O)NC2(C(=O)O)C3CC4CC(C3)CC2C4)nn1-c1ccc(C(=O)N(C)CCOCCOCCN(C)C(=O)[C@H](CCCCNC(=O)[C@H](CC(C)C)NC(=O)C2OC2C(=O)O)NC(=O)CN2CCN(CC(=O)[O-])CCN(CC(=O)[O-])CCN(CC(=O)[O-])CC2)cc1C(C)C.[177Lu+3] (mixture of isomers) | – | mouse HT-29 xenograft | 168 h, biodistribution | relative to: tumour over spleen | tumour-to-spleen ratio | 1.67
CN1Cc2c(NCc3ccc(CN4CCN(c5ccc(C#N)c(F)c5)CC4)cc3)cccc2C(=O)N1C1CCC(=O)NC1=O (centres unmarked) | – | mouse xenograft, lung | dose not given | – | organ weight | 149 mg
Cc1ccc(OCC(=O)N(Cc2cccs2)c2ccn[nH]2)cc1 | – | dog plasma | 750 ng/mL, 0.5 h, 37 °C, unit not given | relative to: time zero | remaining compound | 113
COc1cnc2cccc(N3CCc4c(cc(Cn5ccnc5)cc4-c4cn(C)nc4C(F)(F)F)C3=O)c2c1 | – | male CD-1 mouse, plasma | intraperitoneal, 100 mg/kg | – | Tmax | 24 min
CCCCN1C(=O)c2cccc3c(NCCN4CCOCC4)ccc(c23)C1=O | – | toluene | – | – | emission maximum | 497 nm
COc1cc(-c2nc3ccccc3s2)cc(CN2CCN(CC(=O)O)CCN(Cc3cc(-c4nc5ccccc5s4)cc(OC)c3O)CC2)c1O | UV-vis spectrophotometric titration | aqueous NaCl 0.1 M | 20 µM, 25 °C, pH 3 to 11 | – | pKa2 | 4.47
C[C@H](CCC(=O)NCC(=O)O)[C@H]1CC[C@H]2[C@@H]3[C@H](O)C[C@@H]4C[C@H](OS(=O)(=O)O)CC[C@]4(C)[C@H]3CC[C@]12C | – | human, plasma | endogenous control diurnal | relative to: daily mean concentration | relative peak deviation | 83.9 ± 13.9%
CC(C)(c1cc(Br)c(O)c(Br)c1)c1cc(Br)c(O)c(Br)c1 | – | whole cow milk | 2000 nM nominal | – | dose fraction in skim milk | 46.1%
COc1cccc(OC)c1-c1cc(C(=O)NC2(C(=O)O)C3CC4CC(C3)CC2C4)nn1-c1ccc(C(=O)N(C)CCOCCN(C)C(=O)[C@H](CCCCNC(=O)[C@H](CC(C)C)NC(=O)C2OC2C(=O)O)NC(=O)CN2CCN(CC(=O)[O-])CCN(CC(=O)[O-])CCN(CC(=O)[O-])CC2)cc1C(C)C.[177Lu+3] (mixture of isomers) | – | mouse HT-29 xenograft | 24 h, biodistribution | relative to: tumour over pancreas | tumour-to-pancreas ratio | 6.01
C/C(N)=N/C(=N\S(=O)(=O)c1ccc(C(F)(F)F)cc1)N1C[C@H](c2ccccc2)C(c2ccc(Cl)cc2)=N1 | – | male C57BL/6 mouse, lung | intravenous, 10 mg/kg | – | Cmax | 145000 ng/mL
CC(C)(O)c1ncc([S@](N)(=O)=NC(=O)Nc2c3c(cc4c2CCC4)CCC3)s1 | measured: vascular disorders | healthy human | oral, 100 mg, all formulations pooled | – | subjects with TEAEs | 33%
C=CC(=O)N1CCCC(n2c(=O)c3ncccc3n(Cc3ccc(Oc4ccccc4)cc3)c2=O)C1 (centres unmarked) | metabolic stability | male Sprague-Dawley rat, hepatocytes | 1 µM, 2 h | – | compound remaining | 0%
N#Cc1cccc(N2Cc3cn(Cc4ccc(F)cc4)nc3C2)c1 | metabolic stability | rat, liver microsomes | – | – | half-life | 1.4 min
O=C(Nc1cnccc1-c1ccc([18F])cc1)c1ccnc(NC(=O)C2CC2)c1 | – | FVB/NJ mice (both sexes), pancreas | intravenous, dose not given, 120 min | – | SUV | 0.23
C=C(NC(=O)c1csc(-c2nc3c(cc2O)-c2nc(cs2)C(=O)NC(C(C)O)C(=O)NC(=C(C)OC)c2nc(cs2)C(=O)NC2c4nc(cs4)C(=O)NC(COC(=O)c4c5c6c(cccc6n4O)COC(=O)C(OC4CC(C)(O)C(N(C)C)C(C)O4)C2OC5)c2nc-3cs2)n1)C(N)=O (centres unmarked) | – | cynomolgus monkey, plasma | intravenous, 3 mg/kg, single dose, infusion | – | AUC(0-inf) | 24500 ng·h/mL
O=C(Nc1cnccc1-c1ccc([18F])nc1)c1ccnc(NC(=O)C2CC2)c1 | – | mice, transgenic, GSK-3β, early-stage, large intestine | intravenous, dose not given, 120 min, together with: tariquidar 15 mg/kg i.v. pre-dose | – | SUV | 0.333
CC[C@H](C)[C@@H]1NC(=O)[C@H](Cc2ccccc2)NC(=O)CSC[C@@H](C(N)=O)NC(=O)[C@H](CC(N)=O)NC(=O)[C@H](Cc2c[nH]cn2)NC(=O)[C@H](Cc2ccc(O)cc2)NC(=O)[C@H](C)NC(=O)[C@H](Cc2ccc(F)cc2)NC(=O)[C@H](CC(C)C)NC(=O)[C@H](CCCCN)NC1=O | PAMPA | – | 200 µM, 5 h, pH 7.4 | – | membrane retention | < 0.01%
COc1cc2oc(-c3ccc(F)cc3)cc(=O)c2c(O)c1O | cyclic voltammetry | DMSO, 0.1 M Bu4NPF6 | 25 °C | – | half-wave potential | -1.88 V vs Ag/AgCl

For quick reference, copied from above:
SMILES | assay | test system | setting | how to read | measurement | result
[123I]c1ccc2nc(-c3ccc(-n4ccnn4)nc3)cn2c1 | – | male Wistar rat, kidney | intravenous, 4 MBq, 14 h | – | tracer uptake | 0.02 %ID/g
Cc1cnc2nc1Nc1cccc(c1)COC/C=C/COCc1cc(ccc1OCCN1CCOCC1)N2 | – | BALB/c mice, rhEPO-induced polycythemia | 100 mg/kg, day 4 | – | body weight | 19.3 g and 19.4 g and 18.9 g and 17.4 g and 18.1 g and 19.1 g
C=C[C@]1(C)C[C@@H](OC(=O)CSc2ccc(NC(=O)c3ccco3)cc2)[C@]2(C)[C@H](C)CC[C@]3(CCC(=O)[C@H]32)[C@@H](C)[C@@H]1O | – | Mycoplasma gallisepticum-infected chickens, plasma | intramuscular, 5 mg/kg, 1 h | – | plasma concentration | 309 ng/mL and 344 ng/mL and 256 ng/mL and 378 ng/mL and 328 ng/mL and 338 ng/mL and 374 ng/mL and 382 ng/mL
O=C(CCc1cn([C@@H]2O[C@H](C[18F])[C@@H](O)[C@H](O)[C@H]2O)nn1)Nc1ccc(-c2nnc(-c3ccccn3)nn2)nc1 | – | LS174T xenograft, BALB/c nude mouse, muscle | intravenous, 1 h, together with: saline instead of CC49-TCO | – | muscle uptake | 0.001 ± 0.0002 %ID/g
C=CC(=O)Nc1cc(Nc2nccc(-c3cn(C)c4ccccc34)n2)c(OC)cc1N(C)CCNC | – | human, plasma | 72 h, on ice, high QC level | – | remaining compound | 76.6%
O=C(NS(=O)(=O)c1cccs1)c1cc2ccccc2n1Cc1ccc(Br)c2ccccc12 | – | mouse, plasma | oral, 2 mg/kg | – | AUC(0-last) | 348 ng·h/mL
